Assay results of several laboratories.
Each line is one published result; not all experiments were run side by side. Values joined by “and” are separate records of one study, mostly repeats; a detail may differ. Numbers after ± are the reported error.

With `Clc1ccc(C2(c3ccc(-c4cn[nH]c4)cc3)CCNCC2)cc1` the pERK level was 457 (CLL cells, patient; flow cytometry, MFI; human; 0.01 µM, 24 h).
The toxicity of `CC(=O)c1nn(-c2ccc(Cl)cc2)/c(=N/N=C(\C)c2ccc(NC(=O)c3ccccc3)cc2)s1` is reported as 97.1% and 95.6% (HepG2; 1.25 µM).
With `Cn1cc(-n2cnc3c(NCc4nc5cc(Cl)c(Cl)cc5[nH]4)nc(N4CCOCC4)nc32)cn1` the mRNA level was 0.682 and 0.603 and 0.475 (MDA-MB-231; qRT-PCR, measured: ATM; 0.05 µM, 6 h, unit not given; baseline: DMSO).
`NC(=O)[C@H](CCCN=C(N)CF)NC(=O)c1ccccc1` has a viability of 180% (OCI-Ly1; 0.1 µM, 120 h).
With `Cc1cc(O)c2c(c1)C(=O)c1cc(O)cc(O)c1C2=O` the cell viability was 20.2 ± 2.33% (HepaRG co-cultured with HK-2; MTT; 266.67 µM, 48 h; baseline: untreated control).
With `CCOC(=O)Nc1cc(-c2ccc(C)c(NS(C)(=O)=O)c2)nn2c(C)nnc12` the viability was 42.9% (OCI-Ly1; 0.1 µM, 120 h).
For `O=C(/C=C/C=C/C=C/C1CCCCC1)NC1=C[C@@](O)(/C=C/C=C/C=C/C(=O)NC2=C(O)CCC2=O)[C@@H]2O[C@@H]2C1=O`, the GI50 was over 30000 nM (cl34; cell growth, inhibitor, CellTiter-Glo luminescence; 78 h; baseline: day 0 cell count).
`Cc1cccc(-c2[nH]c(CNc3ccccc3F)nc2-c2ccc3ncnn3c2)n1` gave an XTT absorbance of 2.3 E-1 and 1.8 E-1 and 1.6 E-1 (pomalidomide-resistant MM1.S cells; XTT; 2.25 µM; higher = more viable cells).
Under “mRNA level, LS mean”, `c1ccc2[nH]ccc2c1` is recorded as 4.52 counts per million (HCT-8; RNA-seq, measured: SLC16A9; concentration not given).
The log ratio of `CC/C(=N\NC(=O)NCc1cccc(O)c1)c1ccc(O)c(C)c1O` is reported as 4.52 (SK-OV-3; gene expression, microarray, measured: PLK2; 10 µM, 24 h; baseline: DMSO).
`CCC(=O)N1CCC(COCC(=O)N2CCN(c3nc(-c4cnc(N)nc4C(F)F)nc(N4CCOC[C@@H]4C)n3)CC2)CC1` has a GR50 of 92.3 nM (HCC1954; resazurin growth rate inhibition; 72 h).
The EC50 of `CCn1cc(-c2cc(Cn3ccnc3)cc3c2CCN([C@H](c2cc(OC)ccn2)C2CC2)C3=O)c(C(F)(F)F)n1` is reported as over 30000 nM (SCC-15; cell growth, inhibitor; 120 h).
`Cc1cc(Nc2ncc(Cl)c(Nc3ccccc3S(=O)(=O)C(C)C)n2)c(OC(C)C)cc1C1CCNCC1`: “log2 fold change” -2.52 (CLB-BAR; phosphoproteomics LC-MS/MS, measured: MELK phosphorylation; 200 nM, 60 min; baseline: untreated).
For `O=C(COc1cccc2c1C(=O)N(C1CCC(=O)NC1=O)C2=O)NCCOCCOCCNS(=O)(=O)Nc1cccc(-c2cn3cc(C(=O)NC4CCC4)ccc3n2)c1` (centres unmarked), “log2 fold change” read -0.063 (MV4-11; TMT proteomics, measured: PGLS protein; 10 µM, 16 h; baseline: DMSO).
`CCn1cc(-c2cc(Cn3ccoc3=N)cc3c2CCN([C@@H](C)c2cc(OC)ccn2)C3=O)c(C(F)(F)F)n1` has an EC50 of 37.3 nM (SW900; cell growth, inhibitor; 120 h).
For `Nc1cc(OCc2ccc(C(F)(F)F)cc2)ccc1NC(=O)CO`, the viability was 108 ± 2.13% (sample A patient iPSC-derived NPCs; MTS; 10 µM, 24 h; baseline: vehicle).
`CCN(CCO)CCCC(C)Nc1ccnc2cc(Cl)ccc12` (centres unmarked) has an APD90 prolongation of 315% and 57.3% and 80.4% and 126% and 92.2% and 84.6% and 124% and 74.2% (hiPSC-derived ventricular cardiomyocytes; current clamp, externally paced; 10 µM; baseline: pre-drug control).
For `O=c1[nH]nc(OCCCc2ccc(Cl)cc2)c(NCc2cccnc2)c1Br`, “normalized enrichment score” read 1.99 (HEK-293T; RNA-seq GSEA, measured: HALLMARK_MTORC1_SIGNALING; concentration not given; direction not given).
For `CSc1nc(-c2ccc(Cl)cc2)c2c(NC(=O)c3ccccc3)nnc-2[nH]1`, the cell growth was 117% (A498; SRB; 10 µM, NCI60 single-dose screen; baseline: untreated).
`CCn1c(=O)/c(=C2\Sc3cc(Cl)ccc3N2C)s/c1=C\c1scc[n+]1Cc1ccccc1.[Cl-]` — result for “MyBP-C level change”: 6.94 SD (human cells; plate-normalised; concentration not given, hit retest; baseline: vehicle controls, SDs below control).
Under “pathway activation z-score”, `Cn1cc(Nc2nccc(-c3ccc4c(c3)CN(C3COC3)CC[C@H]4NC(=O)c3cn(C(C)(C)C)nn3)n2)cn1` is recorded as 0.258 (mouse splenic B cells; measured: Telomerase signalling; 30 mg/kg, IgD-activated in vivo; baseline: vehicle, direction not given).
The viability of `NC(=O)[C@H](CCCN=C(N)CCl)NC(=O)c1ccccc1` is reported as 163% (OCI-Ly1; 1 µM, 120 h).
For `C[C@H]1[C@H](C)CC[C@]2(C)CC[C@]3(C)C(=CC(=O)[C@@H]4[C@@]5(C)CC[C@@H](O)[C@](C)(C(=O)NCc6cn(-c7cccc(Br)c7)nn6)[C@@H]5CC[C@]43C)[C@H]12`, “TIGIT positive cells” read 9.88% (human PBMCs; flow cytometry; 10 µM; baseline: CD8- T cells).
For `COc1cc(/C=C/C(=O)N2CCC=CC2=O)cc(OC)c1OC`, the mRNA level was 126 ± 34.9% (MDA-MB-468; qRT-PCR, measured: FAS; 30 µM, 6 h; baseline: time zero).
For `O=C(Nc1ccc2c(O)cc(S(=O)(=O)O)cc2c1)Nc1ccc2c(O)cc(S(=O)(=O)O)cc2c1`, the viability was 165% (OCI-Ly1; 0.5 µM, 120 h).
The sarcomere length of `CC(C)NCC(O)c1ccc(O)c(O)c1` (centres unmarked) is reported as 1.8 µm (mouse ventricular cardiomyocytes; dose not given, 0.011 s).
For `COc1cc2ncnc(Nc3ccc(Oc4ccccc4)cc3C)c2cc1OC.O=C(O)C(F)(F)F`, “average fractional effect” read 36% (LoVo (KRAS G13D); cell viability, resazurin; 3 µM, 72 h, together with: trametinib 0 nM; baseline: DMSO).
The EC50 of `COc1cnc2cccc(N3CCc4c(cc(Cn5ccnc5C)cc4-c4cn(C)nc4C(F)(F)F)C3=O)c2c1` is reported as 763 nM (RERF-LC-Ad2; cell growth, inhibitor; 120 h).
`CCCN1CCN(c2ccc3[nH]c(-c4ccc5[nH]c(-c6cc(OC)c(OC)c(OC)c6)nc5c4)nc3c2)CC1` gave a growth percent of 77.3% (786-0; cell growth, NCI-60 SRB; 10 µM, 48 h).
Under “fitted bottom MyBP-C level”, `COc1cc(/C=C/c2ccc(O)cc2)cc(OC)c1` is recorded as 0% (iPSC-derived cardiomyocytes; concentration-response fit; concentration not given; baseline: vehicle).
With `[Cl-].[Cl-].[Ru+2].c1cnc2c(c1)ccc1cccnc12.c1cnc2c(c1)ccc1cccnc12.c1csc(-c2ccc(-c3ccc(-c4nc5c6cccnc6c6ncccc6c5[nH]4)s3)s2)c1` the phototherapeutic index was 5 (SK-MEL-28; normoxia, together with: red light 633 nm, 100 J/cm2).
`CCN(CC)CCCC(C)Nc1ccnc2cc(Cl)ccc12` (centres unmarked) gave a necrosis of 0.64 ± 0.14 (COS-7; 100 µM, 24 h, 0.1% DMSO, unit not given; baseline: control).
`Cc1ncsc1-c1ccc([C@H](C)NC(=O)[C@H]2C[C@H](O)CN2C(=O)[C@@H](NC(=O)CCCCCCCCCNC(=O)c2ccc3c(c2)[C@H](NC(=O)c2cc(-c4ccc(C(=O)N(C)C)c(O)c4)on2)CC3)C(C)(C)C)cc1` — result for “log2 fold change”: -0.364 (MV4-11; TMT proteomics, measured: CCDC106 protein; concentration not given, 2 h; baseline: DMSO).
For `CCCC(=O)O`, the viability was 165% (OCI-Ly1; 0.5 µM, 120 h).
The EC50 of `CCNC(=O)c1noc(-c2cc(C(C)C)c(O)cc2O)c1-c1ccc(CN2CCOCC2)cc1` is reported as 1700 nM (iPSC-derived cardiomyocytes; concentration-response curve, measured: MyBP-C/MYH ratio; 24 h).
The tissue uptake of `CC(C)C[C@H](NC(=O)C[C@H](O)[C@H](CC(C)C)NC(=O)[C@H](Cc1c[nH]cn1)NC(=O)CNC(=O)[C@@H](NC(=O)[C@H](C)NC(=O)[C@H](Cc1c[nH]c2ccccc12)NC(=O)[C@H](CCC(N)=O)NC(=O)[C@@H](Cc1ccccc1)NC(=O)COCCOCCNC(=O)CCC(C(=O)O)N1CCN(CC(=O)O)CCN(CC(=O)O)CCN(CC(=O)O)CC1)C(C)C)C(N)=O` (some centres unmarked) [lutetium-177 labelled] is reported as 0.6 ± 0.4 %ID/g (BALB/c nu/nu mice, female, bone; 100 pmol, 30 min, time course 0.5 h, together with: PA 300 µg).
The fold change of `Cn1c(Nc2nc3ccc(C(F)(F)F)cc3s2)nc2cc(C(=O)NCCOCCO)ccc21` is reported as 80.7 (SH-SY5Y; RNA-seq, measured: MALL mRNA; 5 µM, 5 h; baseline: untreated cells).
`CC(C)(C)OC(=O)Nc1ccc(-c2cc(C(=O)NCCCCCCC(=O)NO)no2)cc1` gave a viability of 9.14% (OCI-Ly1; 1 µM, 120 h).
`Cn1cc(-c2ccc(-c3cncc(Cl)c3N3CCC4(CCNC4=O)CC3)cc2)cn1` — result for “log2 fold change”: 2.31 (COLO 205; gene expression, microarray, measured: ITPR1 mRNA; concentration not given, 6 h; baseline: untreated cells).
The necrotic cells of `CC(C)[C@H](N)C(=O)N1CCC[C@H]1B(O)O` is reported as 2.79% (MV4-11; annexin V/PI flow cytometry, measured: annexin V- PI+; 2 µM, 24 h).
`CCOC(=O)NCCCC(=O)NCCc1ccccc1` gave a viability of 177% (OCI-Ly1; 0.1 µM, 120 h).
`CN(C)c1ccc(C(=C2C=CC(=[N+](C)C)C=C2)c2ccc(N(C)C)cc2)cc1` gave an EC50 of 6500 nM (iPSC-derived cardiomyocytes; concentration-response curve, measured: MyBP-C protein level; 24 h).
Under “Bliss synergy score”, `COc1cc2ncnc(Nc3ccc(Oc4ccccc4)c(C)c3C)c2cc1OC.Cl` is recorded as -90.9% (COLO 205 (BRAF V600E); cell viability; concentration not given, 72 h, together with: trametinib; direction not given).
`Nc1ncnc2c1ncn2[C@@H]1O[C@H](CSCC[C@H](N)C(=O)O)[C@@H](O)[C@H]1O` has a viability of 177% (OCI-Ly1; 0.1 µM, 120 h).
